# Experimental data pooled from the literature.
# Protocols differ between the studies behind these lines. Numbers after ± are the reported error.
SMILES,assay,test system,conditions,tissue uptake [%ID/g]
N=C(N)NCc1ccc(C(=O)NCCCC[C@H](NC(=O)N[C@@H](CCC(=O)O)C(=O)O)C(=O)O)cc1[211At],,"SCID mouse, PC-3 xenografts, blood",21 h,0.09 ± 0.07
O=C(O)CC[C@H](NC(=O)O[C@@H](CCCCNC(=O)c1ccc([18F])cc1)C(=O)O)C(=O)O,,"mouse, PC-3 PIP/flu xenografts, muscle",30 min,0.86 ± 0.81
CC[C@H](C)[C@@H]1NC(=O)[C@@H](NC(=O)CNC(=O)c2ccc(F)cc2)CSSC[C@@H]2NC(=O)[C@H](C)NC(=O)CNC(=O)[C@@H]3CCCN3C(=O)[C@@H]3CSSC[C@@H](C(=O)NCC(=O)O)NC(=O)[C@H](Cc4ccc(O)cc4)NC(=O)CNC(=O)[C@H](CC(N)=O)NC(=O)CNC(=O)[C@H](CCCNC(=N)N)NC(=O)[C@H](CSSC[C@H](NC(=O)[C@H](CCCNC(=N)N)NC(=O)[C@H](Cc4ccccc4)NC(=O)[C@H](CC(C)C)NC(=O)[C@H](CC(C)C)NC(=O)[C@H]([C@@H](C)O)NC(=O)CNC(=O)[C@H](CC(C)C)NC(=O)[C@H](CC(=O)O)NC(=O)[C@H]([C@@H](C)O)NC(=O)[C@H](CCCNC(=N)N)NC(=O)[C@H](CCSC)NC(=O)[C@H](CC(N)=O)NC(=O)[C@H](CC(C)C)NC1=O)C(=O)N[C@@H](CCCNC(=N)N)C(=O)N[C@@H](CCCNC(=N)N)C(=O)N[C@@H](CC(=O)O)C(=O)N[C@@H](CO)C(=O)N[C@@H](CC(=O)O)C(=O)N3)NC(=O)[C@H]([C@@H](C)CC)NC2=O [fluorine-18 labelled],γ-counting,"mouse, pancreas",,0.3 ± 0.1
N=C(N)NCc1ccc(C(=O)NCCCC[C@H](NC(=O)CCCCCCC(=O)NCCCC[C@H](NC(=O)N[C@@H](CCC(=O)O)C(=O)O)C(=O)O)C(=O)O)cc1[131I],,"SCID mouse, PC-3 xenografts, muscle",2 h,0.13 ± 0.03
C[S]1CC[S]2CC[P](CO)(CO)[99Tc+]12.[C-]#[O+].[C-]#[O+].[C-]#[O+],,"female CF-1 mouse, large intestine","intravenous, 1 h",19.1
C=Cc1cc(O)cc2nc(-c3ccc(O)c([76Br])c3)oc12,,"female C57BL/6 mouse, liver","3 h, high dose, added: estradiol 20 µg blocking",0.28 ± 0.1
CN[C@](C)(C[18F])C(=O)O,,"SCID mouse SK-OV-3 xenograft, spleen","60 min, post injection",8.9 ± 2.1
CCCC[C@H](NC(=O)CCOCCOCCNC(=O)CN1CCN(CC(=O)O)CCN(CC(=O)O)CCN(CC(=O)O)CC1)C(=O)N[C@H]1CC(=O)NCCCC[C@@H](C(N)=O)NC(=O)[C@H](Cc2c[nH]c3ccccc23)NC(=O)[C@H](CCCNC(=N)N)NC(=O)[C@@H](Cc2ccccc2)NC(=O)[C@H](Cc2c[nH]cn2)NC1=O [gallium-68 labelled],biodistribution,"C57BL/6J mouse male tumour-bearing, seminal vesicle","1 h post injection, unblocked",0.2 ± 0.1
COc1cc2ncnc(Oc3cccc(N[11C](=O)Nc4cc(C(C)(C)C(F)(F)F)on4)c3)c2cc1OC,,"Balb/c nude mouse, female, A375 melanoma xenograft, skin","6.6 MBq, 30 min",2.45 ± 0.09
N=C(N)NCc1ccc(C(=O)NCCCC[C@H](NC(=O)N[C@@H](CCC(=O)O)C(=O)O)C(=O)O)cc1[131I],,"SCID mouse, PC-3 xenografts, muscle",2 h,0.24 ± 0.08

# Excerpt of the above:
SMILES,assay,test system,conditions,tissue uptake [%ID/g]
COc1cc2ncnc(Oc3cccc(N[11C](=O)Nc4cc(C(C)(C)C(F)(F)F)on4)c3)c2cc1OC,,"Balb/c nude mouse, female, A375 melanoma xenograft, skin","6.6 MBq, 30 min",2.45 ± 0.09
